Experimental data of several laboratories.
Lines come from different studies, so protocols differ. ± marks the error that the study gave.
CYP2C8: Cytochrome P450 2C8 (CYP2C8, Homo sapiens, UniProt P10632)
Sequence of UniProt P10632 (whole entry, looked up): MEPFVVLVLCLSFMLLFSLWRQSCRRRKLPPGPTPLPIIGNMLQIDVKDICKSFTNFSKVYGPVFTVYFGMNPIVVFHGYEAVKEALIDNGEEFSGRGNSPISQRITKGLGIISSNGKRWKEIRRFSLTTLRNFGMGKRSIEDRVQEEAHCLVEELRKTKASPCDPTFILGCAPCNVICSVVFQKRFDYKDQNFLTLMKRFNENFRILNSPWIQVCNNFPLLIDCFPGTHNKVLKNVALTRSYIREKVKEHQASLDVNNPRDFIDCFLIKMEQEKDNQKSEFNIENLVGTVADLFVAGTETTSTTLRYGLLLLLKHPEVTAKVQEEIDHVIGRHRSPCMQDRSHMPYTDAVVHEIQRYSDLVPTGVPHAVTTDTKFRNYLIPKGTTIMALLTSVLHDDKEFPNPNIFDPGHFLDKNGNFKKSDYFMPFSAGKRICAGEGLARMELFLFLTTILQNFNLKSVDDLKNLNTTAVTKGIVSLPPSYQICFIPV
UCHL1: Ubiquitin carboxyl-terminal hydrolase isozyme L1 (UCHL1, Homo sapiens, UniProt P09936)
Sequence of UniProt P09936 (whole entry, looked up): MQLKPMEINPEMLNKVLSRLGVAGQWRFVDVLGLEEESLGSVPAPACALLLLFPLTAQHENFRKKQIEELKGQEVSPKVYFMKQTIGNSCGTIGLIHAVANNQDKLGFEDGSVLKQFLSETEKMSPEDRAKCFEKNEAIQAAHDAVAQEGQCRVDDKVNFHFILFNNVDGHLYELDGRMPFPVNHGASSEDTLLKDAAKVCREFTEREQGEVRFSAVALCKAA
Sequence of UniProt Q07794 (whole entry, looked up): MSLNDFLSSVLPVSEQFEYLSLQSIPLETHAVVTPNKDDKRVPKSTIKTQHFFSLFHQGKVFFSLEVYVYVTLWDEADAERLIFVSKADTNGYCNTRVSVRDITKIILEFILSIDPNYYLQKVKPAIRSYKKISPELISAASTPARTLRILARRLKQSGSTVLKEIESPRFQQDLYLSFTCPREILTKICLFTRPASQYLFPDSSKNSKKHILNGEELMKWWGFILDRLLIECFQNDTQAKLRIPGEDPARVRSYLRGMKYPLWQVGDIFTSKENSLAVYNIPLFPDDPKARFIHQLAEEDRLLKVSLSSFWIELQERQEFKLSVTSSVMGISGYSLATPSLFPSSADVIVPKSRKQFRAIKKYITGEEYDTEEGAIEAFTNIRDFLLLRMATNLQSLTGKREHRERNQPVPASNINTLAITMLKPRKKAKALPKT

Structure (SMILES)	target	test	system	setting	endpoint	result
Cc1cc(Nc2ncnc3ccc(NC4=NC(C)(CO)CO4)cc23)ccc1Oc1ccn2ncnc2c1 (stereo not shown)	CYP2C8		human, plasma	oral, 300 mg tucatinib single dose, day 1, arithmetic mean	AUC(0-inf)	476 ng·h/mL
C=CC(=O)Nc1cc(Nc2nccc(-c3cn(C)c4ccccc34)n2)c(OCC(F)(F)F)nc1N(C)CCN(C)C	CYP2C8	substrate depletion	recombinant human CYP	1 µM	intrinsic clearance	0.5 µL/min/pmol
Nc1ccc(S(=O)(=O)Nc2ccnn2-c2ccccc2)cc1	CYP2C8		pooled human liver microsomes	5 min	IC50	2940 nM
C=CC(=O)Nc1cc(Nc2nccc(-c3cn(C)c4ccccc34)n2)c(OCC(F)(F)F)nc1N(C)CCNC	CYP2C8	substrate, recombinant enzyme			formation clearance	1.58 µL/min/pmol
Cc1ccc2c(c1)C(=O)[C@]1(O)CCN(c3ccc4nc(C)ccc4c3)C1=N2.Cl	CYP2C8	metabolic stability	recombinant CYP isoform		half-life	32.6 min
Cc1ccc(-c2nsc(N)n2)o1	Histone acetyltransferase RTT109, with Vps75 (Saccharomyces cerevisiae, UniProt Q07794)	enzyme activity, inhibitor, HTS, CPM-based, dose response			IC50	> 125000 nM
N#C[C@H](C[C@@H]1CCCNC1=O)NC(=O)[C@H](CC1CC1)NC(=O)c1cc2cccc(Cl)c2[nH]1	CYP2C8	NADPH metabolic stability		2 µM, pH 7.4, 37 °C, 100 pmol/mL enzyme	half-life	0.79 min
Cn1ccc(NC(=O)C(C#N)=Cc2ncccc2C(F)(F)F)n1	UCHL1	covalent, intact protein LC-MS		12.5 µM	labelling	26.4%
COc1cc(O)c(CC=C(C)C)c2c1C(=O)CC(c1ccc(O)cc1)O2 (stereo not shown)	CYP2C8	enzyme activity, inhibitor	human liver microsomes	10 µM, pH 7.4, together with: amodiaquine	inhibition	98.9 ± 0.1%
C[C@H]1CN(C2COC2)CCN1c1ccc(Nc2cc(-c3ccnc(N4CCn5c(cc6c5CC(C)(C)C6)C4=O)c3CO)cn(C)c2=O)nc1	CYP2C8	substrate	recombinant enzyme	1 µM, 60 min	remaining compound	94.4 ± 7.5%
COc1cc(O)c(CC=C(C)C)c(O)c1C(=O)/C=C/c1ccc(O)cc1	CYP2C8	enzyme activity, inhibitor	human liver microsomes	1 µM, pH 7.4, together with: amodiaquine	inhibition	47.8 ± 5.1%
CCOc1cc(CC(=O)N[C@@H](CC(C)C)c2ccccc2N2CCCCC2)ccc1C(=O)O	CYP2C8	substrate	human, plasma	0.5 mg, day 1	geometric mean AUC(0-inf)	11.1 ng·h/mL
CC(C)=CCc1c(O)cc(O)c2c1O[C@H](c1ccc(O)cc1)CC2=O	CYP2C8			1 µM, pH 7.4	inhibition	32.2 ± 1.2%
O=C(CCl)Nc1cc(-c2ccccc2)nn1-c1ccccc1	UCHL1	covalent, intact protein LC-MS		12.5 µM	labelling	12.4%
CC(C)=CCc1c(O)cc2c(c1O)C(=O)C[C@@H](c1ccc(O)cc1)O2	CYP2C8			10 µM, pH 7.4	inhibition	85.5 ± 1.2%
Cc1cc(Nc2ncnc3ccc(NC4=NC(C)(C)CO4)cc23)ccc1Oc1ccn2ncnc2c1	CYP2C8	substrate	human, plasma	oral, 300 mg single dose, day 1	mean half-life	522 min
